Measured values from different studies.
Lines come from different studies, so protocols differ. Several values in a cell are separate wells, animals, samples, runs or records. Numbers after ± are the reported error.
Chain of UniProt Q12809 (whole entry, looked up): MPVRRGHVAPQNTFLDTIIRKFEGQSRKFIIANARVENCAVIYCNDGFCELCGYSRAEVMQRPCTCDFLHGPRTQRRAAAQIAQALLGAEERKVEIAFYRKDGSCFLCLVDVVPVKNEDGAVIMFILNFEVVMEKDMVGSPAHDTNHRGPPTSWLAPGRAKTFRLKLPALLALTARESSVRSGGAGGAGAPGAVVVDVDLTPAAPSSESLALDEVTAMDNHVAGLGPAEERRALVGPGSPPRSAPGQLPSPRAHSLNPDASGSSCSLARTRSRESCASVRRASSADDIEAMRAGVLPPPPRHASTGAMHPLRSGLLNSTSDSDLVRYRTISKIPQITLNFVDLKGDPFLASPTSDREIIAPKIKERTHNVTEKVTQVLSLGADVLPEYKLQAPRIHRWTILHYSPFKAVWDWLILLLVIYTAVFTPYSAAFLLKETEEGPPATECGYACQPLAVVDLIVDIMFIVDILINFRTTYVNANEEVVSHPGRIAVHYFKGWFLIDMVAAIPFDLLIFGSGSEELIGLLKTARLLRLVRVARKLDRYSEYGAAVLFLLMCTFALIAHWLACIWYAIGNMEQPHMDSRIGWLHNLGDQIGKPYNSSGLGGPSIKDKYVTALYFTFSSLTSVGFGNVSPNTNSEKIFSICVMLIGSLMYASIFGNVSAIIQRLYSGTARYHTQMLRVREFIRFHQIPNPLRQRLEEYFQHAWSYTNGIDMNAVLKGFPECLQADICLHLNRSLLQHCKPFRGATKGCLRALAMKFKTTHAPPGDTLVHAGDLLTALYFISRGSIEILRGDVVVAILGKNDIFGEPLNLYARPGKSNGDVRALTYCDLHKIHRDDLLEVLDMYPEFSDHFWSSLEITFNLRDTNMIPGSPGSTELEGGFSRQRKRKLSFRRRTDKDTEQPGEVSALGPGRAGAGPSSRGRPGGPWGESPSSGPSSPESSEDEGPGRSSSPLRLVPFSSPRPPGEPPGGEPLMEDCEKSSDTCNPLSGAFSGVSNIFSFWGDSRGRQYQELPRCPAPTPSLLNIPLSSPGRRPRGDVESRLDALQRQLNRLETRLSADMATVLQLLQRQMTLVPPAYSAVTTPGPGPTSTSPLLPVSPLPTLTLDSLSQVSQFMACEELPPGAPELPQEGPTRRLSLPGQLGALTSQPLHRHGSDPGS

| SMILES | target or system | assay | system | conditions | scale | quantity | value |
| --- | --- | --- | --- | --- | --- | --- | --- |
| CC(C)C[C@H](NC(=O)[C@H](CC(=O)O)NC(=O)CNC(=O)[C@H](CCCNC(=N)N)NC(=O)[C@H](CC(C)C)NC(=O)[C@H](CC(N)=O)NC(=O)[C@@H]1CCCN1C(=O)[C@@H](NC(=O)[C@H](C)NC(=O)[C@H](CC(N)=O)NC(=O)CCOCCOCCOCCOCCOCCOCCOCCOCCOCCOCCOCCOCCOCCOCCOCCOCCOCCOCCOCCOCCOCCOCCOCCOCCOCCOCCOCCOCCNC(=O)CCOCCOCCOCCOCCOCCOCCOCCOCCOCCOCCOCCOCCOCCOCCOCCOCCOCCOCCOCCOCCOCCOCCOCCOCCOCCOCCOCCOCCNC(=O)c1ccc(F)cc1)C(C)C)C(=O)N[C@@H](CCC(N)=O)C(=O)N[C@H](C(=O)N[C@@H](CC(C)C)C(=O)N[C@@H](C)C(=O)N[C@@H](CCC(N)=O)C(=O)N[C@@H](CCCCN)C(=O)N[C@H](C(=O)N[C@@H](C)C(=O)N[C@@H](CCCNC(=N)N)C(=O)N[C@H](C(N)=O)[C@@H](C)O)C(C)C)C(C)C [fluorine-18 labelled] |  |  | male athymic nude mice, DX3puroβ6 xenograft, αvβ6-positive DX3puroβ6 tumour | intravenous, 1 h |  | tissue uptake | 0.52 ± 0.09 %ID/g |
| CC(C)(C)[C@H](NC(=O)C(F)(F)F)C(=O)N1C[C@H]2[C@@H]([C@H]1C(=O)N[C@H](C#N)C[C@@H]1CCNC1=O)C2(C)C |  |  | human, fasted | oral, 150 mg single dose, 28 days, no ritonavir |  | participants with adverse events | 0% |
| Cn1cnc(Cn2c(=O)[nH]/c(=N\c3cc4cn(C)nc4cc3Cl)n(Cc3cc(F)c(F)cc3F)c2=O)n1 |  |  | human, moderate renal impairment, plasma | oral, 375 mg single dose, 24 h |  | unbound fraction | 0.0141 |
| CNC(=O)[C@@H](NC(=O)[C@H](CC(C)C)[C@H](O)C(=O)NO)C(C)(C)C | Daboia russelii venom proteases (SVMP) | protease activity, inhibitor | MP population | 0.01 µM, together with: azocasein substrate | baseline: venom alone | remaining activity | 96.4% and 93% and 97.5% |
| CC[C@H](C)[C@H](NC(=O)[C@H](CC(C)C)NC(=O)[C@H](Cc1c[nH]c2ccccc12)NC(=O)[C@H](CCC(N)=O)NC(=O)[C@@H](NC(=O)[C@H](Cc1ccccc1)NC(=O)[C@H](C)NC(=O)[C@H](CCCCNC(=O)COCCOCCNC(=O)COCCOCCNC(=O)CC[C@H](NC(=O)CCCCCCCCCCCCCCCCCCC(=O)O)C(=O)O)NC(=O)[C@H](CCC(N)=O)NC(=O)[C@H](C)NC(=O)[C@@H](NC(=O)[C@H](CCCCN)NC(=O)[C@H](CC(=O)O)NC(=O)[C@H](CC(C)C)NC(=O)C(C)(C)NC(=O)[C@@H](NC(=O)[C@H](CO)NC(=O)[C@H](Cc1ccc(O)cc1)NC(=O)[C@H](CC(=O)O)NC(=O)[C@H](CO)NC(=O)[C@@H](NC(=O)[C@H](Cc1ccccc1)NC(=O)[C@@H](NC(=O)CNC(=O)[C@H](CCC(=O)O)NC(=O)C(C)(C)NC(=O)[C@@H](N)Cc1ccc(O)cc1)[C@@H](C)O)[C@@H](C)O)[C@@H](C)CC)[C@@H](C)CC)C(C)C)C(=O)N[C@@H](C)C(=O)NCC(=O)NCC(=O)N1CCC[C@H]1C(=O)N[C@@H](CO)C(=O)N[C@@H](CO)C(=O)NCC(=O)N[C@@H](C)C(=O)N1CCC[C@H]1C(=O)N1CCC[C@H]1C(=O)N1CCC[C@H]1C(=O)N[C@@H](CO)C(N)=O |  |  | healthy subjects, single ascending dose | 1.0 mg, day 29 |  | serum AST | 18.4 ± 0.5 U/L |
| COP(=O)(OC)OC=C(Cl)Cl | rat CYP1A | ethoxyresorufin O-deethylation, non-competitive inhibitor | rat Sprague-Dawley, liver microsomes | 15 min, pH 7.4, together with: ethoxyresorufin 0.82 to 4.1 µM |  | Ki | 657 ± 70 µM |
| CC[C@H](C)[C@H](NC(=O)[C@H](CC(C)C)NC(=O)[C@H](Cc1c[nH]c2ccccc12)NC(=O)[C@H](CCC(N)=O)NC(=O)[C@@H](NC(=O)[C@H](Cc1ccccc1)NC(=O)[C@H](C)NC(=O)[C@H](CCCCNC(=O)COCCOCCNC(=O)COCCOCCNC(=O)CC[C@H](NC(=O)CCCCCCCCCCCCCCCCCCC(=O)O)C(=O)O)NC(=O)[C@H](CCC(N)=O)NC(=O)[C@H](C)NC(=O)[C@@H](NC(=O)[C@H](CCCCN)NC(=O)[C@H](CC(=O)O)NC(=O)[C@H](CC(C)C)NC(=O)C(C)(C)NC(=O)[C@@H](NC(=O)[C@H](CO)NC(=O)[C@H](Cc1ccc(O)cc1)NC(=O)[C@H](CC(=O)O)NC(=O)[C@H](CO)NC(=O)[C@@H](NC(=O)[C@H](Cc1ccccc1)NC(=O)[C@@H](NC(=O)CNC(=O)[C@H](CCC(=O)O)NC(=O)C(C)(C)NC(=O)[C@@H](N)Cc1ccc(O)cc1)[C@@H](C)O)[C@@H](C)O)[C@@H](C)CC)[C@@H](C)CC)C(C)C)C(=O)N[C@@H](C)C(=O)NCC(=O)NCC(=O)N1CCC[C@H]1C(=O)N[C@@H](CO)C(=O)N[C@@H](CO)C(=O)NCC(=O)N[C@@H](C)C(=O)N1CCC[C@H]1C(=O)N1CCC[C@H]1C(=O)N1CCC[C@H]1C(=O)N[C@@H](CO)C(N)=O |  |  | human, normal renal function, plasma | subcutaneous, 5 mg single dose, eGFR ≥ 90 (MDRD), geometric mean |  | AUC(0-inf) | 80500 ng·h/mL |
| C[C@@H]1O[C@@H](Oc2c(-c3cc(O)c(O)c(O)c3)oc3cc(O)cc(O)c3c2=O)[C@H](O)[C@H](O)[C@H]1O | Spike glycoprotein (Severe acute respiratory syndrome coronavirus 2, UniProt P0DTC2) | binding, biolayer interferometry |  |  |  | Kd | 124 µM |
| Nc1ncnc2c([C@@H]3N[C@H](CO)[C@@H](O)[C@H]3O)c[nH]c12 | Nipah henipavirus | viral replication | HeLa, Malaysia | 100 µM |  | inhibition | 72% |
| C[C@@H]1Cc2c(Cl)cc(C(=O)N[C@@H](Cc3ccccc3)C(=O)O)c(O)c2C(=O)O1 |  |  | chicken embryo | in ovo injection, 0.75 µg/egg |  | body weight to egg weight ratio | 71.6 ± 4.2 |
| CC(=O)c1c(O)c(C)c(O)c(Cc2c(O)c3c(c(C(=O)/C=C/c4ccccc4)c2O)OC(C)(C)C=C3)c1O | Voltage-gated inwardly rectifying potassium channel KCNH2 (KCNH2, Homo sapiens, UniProt Q12809) | ion current, whole-cell patch clamp | HEK293 expressing hERG1 | 4 µM, at -120 mV |  | fast deactivation time constant | 30 ± 2 ms |
| O=C(O)[C@H]1O[C@@H](Oc2cc(O)c3c(=O)cc(-c4ccc(O)cc4)oc3c2)[C@H](O)[C@@H](O)[C@@H]1O | Replicase polyprotein 1ab, main protease (rep, Severe acute respiratory syndrome coronavirus 2, UniProt P0DTD1) | reporter gene (mKate2), inhibitor |  | 20 µM |  | inhibition | -0.977% |

For quick reference, copied from above:
| SMILES | target or system | assay | system | conditions | scale | quantity | value |
| --- | --- | --- | --- | --- | --- | --- | --- |
| CC(C)C[C@H](NC(=O)[C@H](CC(=O)O)NC(=O)CNC(=O)[C@H](CCCNC(=N)N)NC(=O)[C@H](CC(C)C)NC(=O)[C@H](CC(N)=O)NC(=O)[C@@H]1CCCN1C(=O)[C@@H](NC(=O)[C@H](C)NC(=O)[C@H](CC(N)=O)NC(=O)CCOCCOCCOCCOCCOCCOCCOCCOCCOCCOCCOCCOCCOCCOCCOCCOCCOCCOCCOCCOCCOCCOCCOCCOCCOCCOCCOCCOCCNC(=O)CCOCCOCCOCCOCCOCCOCCOCCOCCOCCOCCOCCOCCOCCOCCOCCOCCOCCOCCOCCOCCOCCOCCOCCOCCOCCOCCOCCOCCNC(=O)c1ccc(F)cc1)C(C)C)C(=O)N[C@@H](CCC(N)=O)C(=O)N[C@H](C(=O)N[C@@H](CC(C)C)C(=O)N[C@@H](C)C(=O)N[C@@H](CCC(N)=O)C(=O)N[C@@H](CCCCN)C(=O)N[C@H](C(=O)N[C@@H](C)C(=O)N[C@@H](CCCNC(=N)N)C(=O)N[C@H](C(N)=O)[C@@H](C)O)C(C)C)C(C)C [fluorine-18 labelled] |  |  | male athymic nude mice, DX3puroβ6 xenograft, αvβ6-positive DX3puroβ6 tumour | intravenous, 1 h |  | tissue uptake | 0.52 ± 0.09 %ID/g |
| CC(C)(C)[C@H](NC(=O)C(F)(F)F)C(=O)N1C[C@H]2[C@@H]([C@H]1C(=O)N[C@H](C#N)C[C@@H]1CCNC1=O)C2(C)C |  |  | human, fasted | oral, 150 mg single dose, 28 days, no ritonavir |  | participants with adverse events | 0% |
